Experimental data pooled from the literature.
A part holds a random share of what one study measured.

Sample 1 — technique: RNA Bind-n-Seq; molecule type: RNA; sample: in vitro; concentration: 1 µM; setting: whole 134-nt RNA, ends assumed; with: 150 mM KCl; relative to: input library; direction: higher = stronger binding
Target: Ras GTPase-activating protein-binding protein 1, C-terminal RGG region (G3BP1, Homo sapiens, UniProt Q13283)
UniProt Q13283, sequence (whole entry, looked up): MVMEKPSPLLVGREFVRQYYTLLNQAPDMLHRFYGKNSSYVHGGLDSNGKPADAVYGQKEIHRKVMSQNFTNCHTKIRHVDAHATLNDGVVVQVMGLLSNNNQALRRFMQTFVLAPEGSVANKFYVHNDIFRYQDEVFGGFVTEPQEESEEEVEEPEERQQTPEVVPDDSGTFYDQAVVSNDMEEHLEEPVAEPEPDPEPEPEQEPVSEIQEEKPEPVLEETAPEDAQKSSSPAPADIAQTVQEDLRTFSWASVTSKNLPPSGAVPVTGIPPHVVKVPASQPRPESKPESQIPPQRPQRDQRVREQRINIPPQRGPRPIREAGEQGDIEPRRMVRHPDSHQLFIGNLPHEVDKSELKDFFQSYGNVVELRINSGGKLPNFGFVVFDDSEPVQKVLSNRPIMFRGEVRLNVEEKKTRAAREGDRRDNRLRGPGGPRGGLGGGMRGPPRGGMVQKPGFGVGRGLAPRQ
`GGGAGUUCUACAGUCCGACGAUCCCUGUGCUACACAUCGUAUGUACCGAAUCGGGGUUUUUUUGGGGAGGGGUUUUUUUGGGGAAAGUAUUAUGUUACGCCGUUCGGAUCUGCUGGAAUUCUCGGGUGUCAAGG` has a log2 enrichment of 0.871.
With `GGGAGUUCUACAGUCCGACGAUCACCAUGCAGGUGGGCAUCUUUGGGAAGUGGGGCAAGGGGGUGAUAGGGAGGGGGGUAACACUUUGGGAACAGGUGGUCCCAGGUCGUUUCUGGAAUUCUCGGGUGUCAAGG` the log2 enrichment was 2.15.
`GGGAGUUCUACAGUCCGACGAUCCUGUGCUACACAUCGUAUGUACCGAAUCGGGGUUUUUUUGGGGUUUUUGGGGUUUUUGGGGAAAGUAUUAUGUUACGCCGUUCGGAUCUGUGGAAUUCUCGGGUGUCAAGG` has a log2 enrichment of -0.155.
With `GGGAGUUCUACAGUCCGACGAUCCUGUGCUACACAUCGUAUGUACCGAAUCGGGAAAAAAAGGAAAAAAAGGGAAAAAAAGGGGAAAGUAUUAUGUUACGCCGUUCGGAUCUGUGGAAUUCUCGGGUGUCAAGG` the log2 enrichment was -1.51.
`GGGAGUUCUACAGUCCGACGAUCACCAUGCAGGUGGCCAUCUUUGGGAAGUGGGGCAAGGGGGGGAUAGGGAGGGGGGUAACACUUUGGGAACAGGUGGUCCCAGGUCGUUUCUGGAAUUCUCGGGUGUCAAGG` gave a log2 enrichment of -1.37.
The log2 enrichment of `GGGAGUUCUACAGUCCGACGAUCUUCACAGGUAAGUGGGGCAGUGUCCGGACCAGUGGACGCAGCAGUGGCCUUGGCACCGAUGUGGGCUCCCGGCUAGCUGGCAGAGACGCGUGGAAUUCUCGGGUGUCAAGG` is reported as 0.314.
`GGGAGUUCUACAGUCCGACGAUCUAACUUUAGAGGAGGAUCUGAUGGAUAUGGCAGUGGACGUGGAUUUGGGGAUGGCUUUAAUGGGUAUGGAGGAGGACCUGGAGGUGGCAAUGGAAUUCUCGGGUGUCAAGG` has a log2 enrichment of -1.2.
For `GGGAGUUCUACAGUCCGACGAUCCUGUGCUACACAUCGUAUGUACCGAAUCGGGGAAAAAAAGGGGAAAAAAAGGAAAAAAAGGGAAAGUAUUAUGUUACGCCGUUCGGAUCUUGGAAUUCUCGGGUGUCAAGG`, the log2 enrichment was -1.3.
For `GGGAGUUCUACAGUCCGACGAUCUCCUGUGCUACACAUCGUAUGUACCGAAUCGGGGCCCCCGGGGCCCCCGGGGCCCCCGGAAAGUAUUAUGUUACGCCGUUCGGAUCUGCAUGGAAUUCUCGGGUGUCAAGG`, the log2 enrichment was -1.61.
For `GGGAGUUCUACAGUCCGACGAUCCAAGUCCUGUGCUACACAUCGUAUGUACCGAAUCGGGAAAGGGUUUUUGGGAGGGAAAGUAUUAUGUUACGCCGUUCGGAUCUGCACUUCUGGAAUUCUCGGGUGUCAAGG`, the log2 enrichment was 1.2.

Sample 2 — technique: aptamer microarray, sandwich; molecule type: DNA with 2'F-ANA; sample: in vitro; concentration: 200 nM; with: Cy3 exosite-II aptamer, 400 nM; direction: higher = stronger binding; strand: GGTTGGTGTGGTTGG
Target: Prothrombin, mature alpha-thrombin (F2, Homo sapiens, UniProt P00734)
Setting: whole 15-mer aptamer, many near background
`2'F-ANA at 1 2 4 6 7 8 10 11 12` — result for “mean fluorescence intensity”: 56.8 a.u.
For `2'F-ANA at 1 4 5 6 7 9 10 11 15`, “mean fluorescence intensity” read 68 a.u.
`2'F-ANA at 1 3 4 6 8 10 11 12 14 15` — result for “mean fluorescence intensity”: 51.1 a.u.
`2'F-ANA at 2 4 5 6 7 9 11 14 15`: “mean fluorescence intensity” 56 a.u.
Under “mean fluorescence intensity”, `2'F-ANA at 5 6 11 12 13 15` is recorded as 80.2 a.u.
Under “mean fluorescence intensity”, `2'F-ANA at 1 2 4 8 9 10 14` is recorded as 44.7 a.u.
`2'F-ANA at 1 6 8 9 10 11 14` — result for “mean fluorescence intensity”: 49.1 a.u.
For `2'F-ANA at 5 6 7 8 10 11 13 14`, “mean fluorescence intensity” read 45.4 a.u.
`2'F-ANA at 1 2 3 4 5 6 8 10 11 12 13 14` — result for “mean fluorescence intensity”: 49 a.u.
Under “mean fluorescence intensity”, `2'F-ANA at 1 5 7 11 13` is recorded as 51.1 a.u.
`2'F-ANA at 2 3 4 5 8 11 13 14 15`: “mean fluorescence intensity” 88.5 a.u.
For `2'F-ANA at 2 3 5 8 9 10 11 13 14`, “mean fluorescence intensity” read 46.2 a.u.
For `2'F-ANA at 2 3 4 5 7 9 11 14`, “mean fluorescence intensity” read 56.6 a.u.
`2'F-ANA at 1 5 6 7 11 12 13 15`: “mean fluorescence intensity” 67.6 a.u.
`2'F-ANA at 2 5 8 9 11 12 13 15`: “mean fluorescence intensity” 81.1 a.u.
For `2'F-ANA at 1 2 3 4 5 7 10 11 13 14 15`, “mean fluorescence intensity” read 80.3 a.u.
`2'F-ANA at 1 2 4 6 9 10 14` — result for “mean fluorescence intensity”: 43.4 a.u.
Under “mean fluorescence intensity”, `2'F-ANA at 1 4 6 7 8 11 14` is recorded as 50.5 a.u.
For `2'F-ANA at 2 3 4 5 7 8 10 13 15`, “mean fluorescence intensity” read 48.4 a.u.
For `2'F-ANA at 1 2 3 4 7 12 13 15`, “mean fluorescence intensity” read 283 a.u.
`2'F-ANA at 2 3 6 7 14 15`: “mean fluorescence intensity” 395 a.u.
`2'F-ANA at 3 5 7 8 9 10 12 14`: “mean fluorescence intensity” 59.6 a.u.
For `2'F-ANA at 2 4 5 6 8 9 10 11 13 14 15`, “mean fluorescence intensity” read 51 a.u.
`2'F-ANA at 1 5 9 11 15`: “mean fluorescence intensity” 49.8 a.u.
`2'F-ANA at 1 2 3 5 7 8 10 12 13`: “mean fluorescence intensity” 48.8 a.u.

Sample 3 — technique: protein binding microarray; molecule type: double-stranded DNA, one strand shown; sample: in vitro; concentration: not given; relative to: not given; direction: higher = stronger binding
Target: Histone acetyltransferase KAT6A, winged helix 2, GST fusion (KAT6A, Homo sapiens, UniProt Q92794, residues 85-181)
Setting: 8-mer, flanks averaged, mean of 2 arrays, mostly near background
Target sequence (chain): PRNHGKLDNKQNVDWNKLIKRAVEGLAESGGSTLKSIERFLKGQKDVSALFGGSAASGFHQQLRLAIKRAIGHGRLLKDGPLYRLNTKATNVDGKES
For `CTCACGAA`, the E-score was 0.142.
With `CCTCAAGG` the E-score was 0.0556.
For `ACACAGAC`, the E-score was 0.0847.
`TAAACCTA` has an E-score of -0.0852.
For `CTGGGTCC`, the E-score was -0.0256.
For `CCCGGACG`, the E-score was 0.0817.
With `ACTAATCA` the E-score was 0.0548.
For `CTGGTAAG`, the E-score was -0.0366.
`CGAGGCGA` gave an E-score of 0.176.
With `GGTAGGAC` the E-score was 0.073.
The E-score of `TACGGTCA` is reported as 0.000275.
For `AGGCGCCC`, the E-score was 0.0794.
With `TTAGCCAA` the E-score was -0.0289.
For `CGATCACA`, the E-score was 0.0912.
For `CAAGTATG`, the E-score was -0.0595.
With `ACGTGGTA` the E-score was -0.0806.
`TCAGATCA` has an E-score of 0.0596.
`CCCCGTCC` has an E-score of -0.087.
`ACGCCTAG` gave an E-score of 0.0135.
`ACGCCCGT` has an E-score of -0.134.
`ATTCTGGA` has an E-score of -0.0214.
`CCACTCAC` has an E-score of 0.156.
For `TCTGTCCA`, the E-score was 0.104.
`CATTGTCC` gave an E-score of -0.0918.
With `AGAACGCC` the E-score was 0.0244.

Sample 4 — technique: RNA Bind-n-Seq; molecule type: RNA; sample: in vitro; concentration: not given; relative to: input RNA pool; direction: higher = stronger binding
Target: RING finger protein unkempt homolog, zinc fingers 1-6, GST-SBP tag (UNK, Homo sapiens, UniProt Q9C0B0, residues 30-357)
Setting: RNA with constant flanks, human and mouse sites, ends assumed
Target sequence (chain): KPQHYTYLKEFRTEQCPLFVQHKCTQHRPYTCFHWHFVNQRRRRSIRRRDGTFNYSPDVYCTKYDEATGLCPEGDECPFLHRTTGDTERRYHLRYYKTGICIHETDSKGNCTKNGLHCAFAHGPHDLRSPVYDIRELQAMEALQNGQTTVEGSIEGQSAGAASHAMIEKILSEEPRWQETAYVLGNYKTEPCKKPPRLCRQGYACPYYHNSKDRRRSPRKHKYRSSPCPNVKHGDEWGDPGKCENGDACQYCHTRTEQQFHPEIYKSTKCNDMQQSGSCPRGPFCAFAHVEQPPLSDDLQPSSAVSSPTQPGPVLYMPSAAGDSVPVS
`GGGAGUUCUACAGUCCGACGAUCGAGGGAGGAACAGCAGUAGCAACAUCAUCAUUAACAGCAGAUAAUGAUUUUAAACCUGUGGGUAUUGGUCUACCCCAUUCAGAAAACAACCAAGAUAAAGGCCUGCCUCGGCCAGAUAAUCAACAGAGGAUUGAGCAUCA` has a bound/input enrichment of 0.537 ratio.
`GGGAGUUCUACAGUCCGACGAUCCACCCUGUUCUCAGUAAAGAUCGCAACUUUCAUGUUUUCCUGGAAUAUGAUCAGGAUCUAAGUGUUAGGCGGAAAAAUACUAAAGAGAUGUUUGGUGGCUUCUUCAAAAGUGUGGUGAAACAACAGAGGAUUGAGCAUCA` gave a bound/input enrichment of 0.204 ratio.
`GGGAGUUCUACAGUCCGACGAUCUAGACAAAGGCUGCUGCUUUCAGCCUUCUCCAAGGGAGAGCCUGGCUGGCUAACAGAGGGAGCCUGAGUCAGUCACAUCUGGCAGCUGGCAGCAAGCUCUUCAUCCCUCCACAGUGAGGACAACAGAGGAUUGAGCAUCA` gave a bound/input enrichment of 0.0642 ratio.
With `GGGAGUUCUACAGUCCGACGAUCGCAGUGGACCAGGAGCAGCUUGGAGUUUUAACUUUCAUUUUACAAAGAACAACAUGUUUGAAUGUUUCAGCAGGCAAGUUAUAACUGGCAUCUACUUCUUGUUCUUCUAGAACACCGAAACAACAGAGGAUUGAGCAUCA` the bound/input enrichment was 0.182 ratio.
The bound/input enrichment of `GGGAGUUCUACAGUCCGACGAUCGUGAAUCUUUAACAUUACCUGGUGUGUUCCCUAACAUUCAAACUGUGCAUUGGCCAUACCCUUAGGAGUGGUUUGAGUAGUACAGACCUCGAAGCCUUGCUGCUAACACUGAGGUAGCUCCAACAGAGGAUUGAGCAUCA` is reported as 0.271 ratio.
With `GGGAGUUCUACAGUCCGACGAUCCAGAUUCACAGGGAUUUGAAAGCUGGUAAUAUUCUUCUGGGUGAGGAUGGUUCAGUACAAAUAGCAGAUUUUGGGGUAAGUGCGUUCCUAGCAACAGGGGGUGAUGUUACCCGAAAUAAACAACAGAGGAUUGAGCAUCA` the bound/input enrichment was 0.54 ratio.
The bound/input enrichment of `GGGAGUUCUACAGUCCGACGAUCGGGAUUUUCAUGUUAACUUUUUUCAUGGCAUUCCUCUUUAACUGGAUUGGGUUUUUCCUGUCUUUUUGCCUGACCACUUCAGCUGCAGGAAGGUAUGGGGCCAUUUCAGGAUUUGGUCUCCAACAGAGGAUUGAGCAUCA` is reported as 0.157 ratio.
The bound/input enrichment of `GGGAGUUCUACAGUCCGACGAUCUGAUUGGAUUAUUUGAAUGAAAUUUGCACACAACGAUUGAGUUGAACCUGCUUACUAUUUUUAGGAUUGUUUUAUUGUACUAACAACUUUUAAAGACUAUGAAGUAAAUAUUUCACGUAGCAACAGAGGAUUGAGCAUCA` is reported as 1.17 ratio.
For `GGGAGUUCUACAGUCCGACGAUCCGCUCUCAGCUGAAUGACAUCUCAUCUUUUAAGAAUAUCUACAGAUAUGCCUUUGAUUUUGCAAGGGAUAAAGAUCAGAGAAGCCUUGAUAUUGAUACUGCGAAGUCUAUGUUAGCUCUGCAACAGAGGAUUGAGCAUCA`, the bound/input enrichment was 0.109 ratio.
`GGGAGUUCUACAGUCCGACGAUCGACUGUGAAACUUAAAAUGAAGCAGGUAAAUCAAUAAGAUGCAAAACUGUCUUAAUUGAACCAUCAUAGAGACGGUCACUCCUGCCCACAGACUAGGUCUGCACUAAUUGCCACUUCGGCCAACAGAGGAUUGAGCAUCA` gave a bound/input enrichment of 0.148 ratio.
The bound/input enrichment of `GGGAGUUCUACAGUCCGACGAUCCAUAAUAUUGACAUUCCUACAACACAACAGGUGCCACACAUUGAAGCACUUCUGAAAAGAAAGCUAUCAGAACAAGAAGAACUGAAGAAAAAACCUAGAAGAUCGUGUACUCUUCCAAACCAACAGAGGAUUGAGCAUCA` is reported as 0.324 ratio.

Repeated from above (sample 2):
`2'F-ANA at 1 2 3 4 5 6 8 10 11 12 13 14` — result for “mean fluorescence intensity”: 49 a.u.
`2'F-ANA at 3 5 7 8 9 10 12 14`: “mean fluorescence intensity” 59.6 a.u.
`2'F-ANA at 1 5 6 7 11 12 13 15`: “mean fluorescence intensity” 67.6 a.u.
`2'F-ANA at 2 3 4 5 8 11 13 14 15`: “mean fluorescence intensity” 88.5 a.u.
Under “mean fluorescence intensity”, `2'F-ANA at 1 2 4 8 9 10 14` is recorded as 44.7 a.u.
Under “mean fluorescence intensity”, `2'F-ANA at 1 5 7 11 13` is recorded as 51.1 a.u.
